Results pooled from the literature.
Every numbered part comes from another study and shows a few of its results, in no order.

Set 1 — technique: universal PBM; form: double-stranded DNA, one strand shown; sample: in vitro; tested at: 600 nM; direction: higher = stronger binding
Target: Sal-like protein 4, full length isoform A (SALL4, Homo sapiens, UniProt Q9UJQ4, residues 1-1053)
UniProt Q9UJQ4, sequence (whole entry, looked up): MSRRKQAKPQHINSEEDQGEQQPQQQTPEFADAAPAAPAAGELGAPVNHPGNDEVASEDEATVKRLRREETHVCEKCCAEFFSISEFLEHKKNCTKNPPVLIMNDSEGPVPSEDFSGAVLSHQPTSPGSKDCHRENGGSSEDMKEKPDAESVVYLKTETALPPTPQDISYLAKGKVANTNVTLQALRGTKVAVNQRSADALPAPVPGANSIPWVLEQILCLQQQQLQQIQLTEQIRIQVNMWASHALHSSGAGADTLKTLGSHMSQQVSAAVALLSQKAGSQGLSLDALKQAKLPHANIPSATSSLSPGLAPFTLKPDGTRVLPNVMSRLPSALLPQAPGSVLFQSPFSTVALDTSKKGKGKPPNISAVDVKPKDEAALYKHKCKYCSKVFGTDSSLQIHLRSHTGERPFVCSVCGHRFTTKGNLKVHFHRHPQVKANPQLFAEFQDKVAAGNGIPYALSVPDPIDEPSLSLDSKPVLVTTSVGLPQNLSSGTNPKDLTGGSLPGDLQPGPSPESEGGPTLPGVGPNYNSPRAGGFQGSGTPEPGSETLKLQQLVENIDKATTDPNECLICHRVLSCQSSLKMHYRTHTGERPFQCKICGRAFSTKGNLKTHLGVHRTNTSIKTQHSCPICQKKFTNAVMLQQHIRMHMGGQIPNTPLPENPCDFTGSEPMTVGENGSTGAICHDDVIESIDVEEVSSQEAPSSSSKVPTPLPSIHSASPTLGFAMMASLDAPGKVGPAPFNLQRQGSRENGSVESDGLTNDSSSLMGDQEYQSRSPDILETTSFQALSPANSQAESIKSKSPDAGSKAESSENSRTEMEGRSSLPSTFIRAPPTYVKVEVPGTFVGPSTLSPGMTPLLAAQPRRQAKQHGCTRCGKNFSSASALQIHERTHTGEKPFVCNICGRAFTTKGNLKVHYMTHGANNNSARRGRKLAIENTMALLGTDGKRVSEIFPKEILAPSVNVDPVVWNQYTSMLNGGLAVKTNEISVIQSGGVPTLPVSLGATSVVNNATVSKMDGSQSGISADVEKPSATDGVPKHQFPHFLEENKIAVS
Setting: 8-mer, flanks averaged, mean of replicates
`CTCCGGAA` has an E-score of -0.0825.
`ATGAGACA` has an E-score of 0.206.
The E-score of `CCTAAATC` is reported as 0.00251.
`CGCAGAGC` has an E-score of -0.193.
`CGCACATA` gave an E-score of -0.112.
The E-score of `AGGCAAAA` is reported as 0.203.
With `ATTAGAGC` the E-score was 0.161.

Set 2 — technique: protein-binding microarray; form: double-stranded DNA, one strand shown; sample: in vitro; tested at: 2540 nM top; setting: 60-bp whole probe; with: salmon DNA 0.4 mg/ml; baseline: random background probes; direction: higher = stronger binding; shared flanks, not repeated: GCCTAGCAC … GTCTTGATTCGCTTGACGCTGCTG
Target: Interferon regulatory factor 3, full length, phosphomimetic (IRF3, Homo sapiens, UniProt Q14653, residues 1-427, S386D/S396D/S398D/S402D/T404D/S405D)
Target sequence (chain): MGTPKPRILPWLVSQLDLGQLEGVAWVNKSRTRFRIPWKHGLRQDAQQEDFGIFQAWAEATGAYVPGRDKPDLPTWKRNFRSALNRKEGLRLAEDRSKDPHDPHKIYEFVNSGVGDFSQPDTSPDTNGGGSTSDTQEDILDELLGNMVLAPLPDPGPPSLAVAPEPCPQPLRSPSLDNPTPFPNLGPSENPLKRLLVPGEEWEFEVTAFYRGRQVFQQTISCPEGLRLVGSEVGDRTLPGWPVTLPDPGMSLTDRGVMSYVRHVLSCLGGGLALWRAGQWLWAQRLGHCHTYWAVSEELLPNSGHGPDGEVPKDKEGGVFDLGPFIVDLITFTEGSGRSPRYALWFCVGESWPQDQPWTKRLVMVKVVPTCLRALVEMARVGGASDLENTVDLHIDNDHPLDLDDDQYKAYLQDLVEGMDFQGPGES
For `CAGCCTCTACCTCCTGGGCTCGTGCTA`, “fitted relative affinity” read -0.203 z-score.
`TTAGAACTAGGGTTTCGATTAGTGCTA` — result for “fitted relative affinity”: 1.45 z-score.
For `CTGAGTCCCTATCTCCTCACGTGCTAG`, “fitted relative affinity” read 0.911 z-score.
Under “fitted relative affinity”, `CAACCTTTGTTTTTTTCTATGTGCTAG` is recorded as 1.04 z-score.
`GGGATAAGGACAGACACCATGTGCTAG`: “fitted relative affinity” -0.17 z-score.
Under “fitted relative affinity”, `TTCGATTTCAGTCTCGATTAGTGCTAG` is recorded as 2.76 z-score.

Set 3 — technique: protein binding microarray; form: double-stranded DNA, one strand shown; sample: in vitro; tested at: not given; baseline: not given; direction: higher = stronger binding
Target: Histone acetyltransferase KAT6A, winged helix 2, GST fusion (KAT6A, Homo sapiens, UniProt Q92794, residues 85-181)
Setting: 8-mer, flanks averaged, mean of 2 arrays, mostly near background
Target sequence (chain): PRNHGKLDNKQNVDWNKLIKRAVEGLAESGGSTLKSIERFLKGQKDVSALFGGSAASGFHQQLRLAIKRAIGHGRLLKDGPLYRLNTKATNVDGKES
`ACAAATGC` gave an E-score of 0.036.
The E-score of `CTGGAAAA` is reported as 0.0435.
The E-score of `ATTTATTG` is reported as -0.13.
The E-score of `TCACAGGA` is reported as -0.1.
With `ATGGCCGC` the E-score was 0.0479.

Single results of other studies
`PhoQ, residues 284 288 289 292 302 303 NLGVHL` gave a fold induction of 0.44 (PhoP, residues 12 14 15 18 19 NMSSL (Escherichia coli, UniProt P23836); Sort-seq, measured: YFP reporter; E. coli; PhoQ-PhoP variant library, with: 10 µM Mg2+; baseline: high Mg2+ state, higher = stronger signaling).

Repeated from above (set 3):
The E-score of `TCACAGGA` is reported as -0.1.
